Measurements from different studies.
Protocols differ between the studies behind these lines. Values joined by “and” are separate records of one study, mostly repeats; a detail may differ. Numbers after ± are the reported error.
Calm1 D21A/D57A: Calmodulin-1 (Calm1, Rattus norvegicus, UniProt P0DP29, D21A/D57A)
KCNT1: Potassium channel subfamily T member 1 (KCNT1, Homo sapiens, UniProt Q5JUK3)
Chain of UniProt Q5JUK3 (whole entry, looked up): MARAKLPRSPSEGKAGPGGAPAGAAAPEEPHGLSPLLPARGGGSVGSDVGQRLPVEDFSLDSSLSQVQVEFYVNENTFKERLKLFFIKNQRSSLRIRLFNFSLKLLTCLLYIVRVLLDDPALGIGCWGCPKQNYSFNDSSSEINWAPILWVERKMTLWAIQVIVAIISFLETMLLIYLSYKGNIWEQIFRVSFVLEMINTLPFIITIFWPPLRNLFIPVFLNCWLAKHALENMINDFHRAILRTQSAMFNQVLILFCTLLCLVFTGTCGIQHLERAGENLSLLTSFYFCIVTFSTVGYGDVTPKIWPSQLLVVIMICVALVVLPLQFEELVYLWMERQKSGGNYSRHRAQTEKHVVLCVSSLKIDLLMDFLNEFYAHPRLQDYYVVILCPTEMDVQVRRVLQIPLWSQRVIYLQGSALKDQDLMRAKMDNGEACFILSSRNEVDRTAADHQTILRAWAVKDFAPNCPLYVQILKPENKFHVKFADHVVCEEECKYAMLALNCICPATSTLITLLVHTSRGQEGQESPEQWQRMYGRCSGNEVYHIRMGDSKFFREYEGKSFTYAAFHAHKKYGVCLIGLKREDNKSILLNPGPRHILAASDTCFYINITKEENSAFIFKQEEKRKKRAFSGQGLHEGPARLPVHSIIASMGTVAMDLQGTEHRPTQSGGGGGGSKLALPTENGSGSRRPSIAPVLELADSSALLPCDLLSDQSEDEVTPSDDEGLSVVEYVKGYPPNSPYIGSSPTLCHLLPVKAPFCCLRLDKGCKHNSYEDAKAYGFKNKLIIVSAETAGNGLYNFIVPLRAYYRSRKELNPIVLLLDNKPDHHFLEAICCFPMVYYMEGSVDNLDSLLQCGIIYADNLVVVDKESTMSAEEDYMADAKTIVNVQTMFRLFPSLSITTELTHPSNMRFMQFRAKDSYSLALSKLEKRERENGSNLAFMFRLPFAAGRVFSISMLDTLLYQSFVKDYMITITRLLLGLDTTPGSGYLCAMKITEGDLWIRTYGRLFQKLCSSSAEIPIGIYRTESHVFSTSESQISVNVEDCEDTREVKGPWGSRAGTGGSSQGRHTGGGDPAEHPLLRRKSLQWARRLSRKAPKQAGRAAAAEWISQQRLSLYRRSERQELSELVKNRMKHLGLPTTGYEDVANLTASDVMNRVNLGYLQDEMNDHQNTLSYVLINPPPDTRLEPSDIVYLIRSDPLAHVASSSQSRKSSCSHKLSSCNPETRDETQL
YAP1 WW2 domain: Transcriptional coactivator YAP1, WW2 domain (YAP1, Homo sapiens, UniProt P46937)
T1: dsDNA; GGAAAAAATTTTTTCC
T2: DNA triplex, hexaethylene glycol linkers after 12, 24; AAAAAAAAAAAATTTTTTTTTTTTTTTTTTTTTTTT
T3: miR-21 precursor (Homo sapiens); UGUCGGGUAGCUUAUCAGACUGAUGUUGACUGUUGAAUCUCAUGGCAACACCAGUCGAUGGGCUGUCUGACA
Chain of UniProt Q12791 (whole entry, looked up): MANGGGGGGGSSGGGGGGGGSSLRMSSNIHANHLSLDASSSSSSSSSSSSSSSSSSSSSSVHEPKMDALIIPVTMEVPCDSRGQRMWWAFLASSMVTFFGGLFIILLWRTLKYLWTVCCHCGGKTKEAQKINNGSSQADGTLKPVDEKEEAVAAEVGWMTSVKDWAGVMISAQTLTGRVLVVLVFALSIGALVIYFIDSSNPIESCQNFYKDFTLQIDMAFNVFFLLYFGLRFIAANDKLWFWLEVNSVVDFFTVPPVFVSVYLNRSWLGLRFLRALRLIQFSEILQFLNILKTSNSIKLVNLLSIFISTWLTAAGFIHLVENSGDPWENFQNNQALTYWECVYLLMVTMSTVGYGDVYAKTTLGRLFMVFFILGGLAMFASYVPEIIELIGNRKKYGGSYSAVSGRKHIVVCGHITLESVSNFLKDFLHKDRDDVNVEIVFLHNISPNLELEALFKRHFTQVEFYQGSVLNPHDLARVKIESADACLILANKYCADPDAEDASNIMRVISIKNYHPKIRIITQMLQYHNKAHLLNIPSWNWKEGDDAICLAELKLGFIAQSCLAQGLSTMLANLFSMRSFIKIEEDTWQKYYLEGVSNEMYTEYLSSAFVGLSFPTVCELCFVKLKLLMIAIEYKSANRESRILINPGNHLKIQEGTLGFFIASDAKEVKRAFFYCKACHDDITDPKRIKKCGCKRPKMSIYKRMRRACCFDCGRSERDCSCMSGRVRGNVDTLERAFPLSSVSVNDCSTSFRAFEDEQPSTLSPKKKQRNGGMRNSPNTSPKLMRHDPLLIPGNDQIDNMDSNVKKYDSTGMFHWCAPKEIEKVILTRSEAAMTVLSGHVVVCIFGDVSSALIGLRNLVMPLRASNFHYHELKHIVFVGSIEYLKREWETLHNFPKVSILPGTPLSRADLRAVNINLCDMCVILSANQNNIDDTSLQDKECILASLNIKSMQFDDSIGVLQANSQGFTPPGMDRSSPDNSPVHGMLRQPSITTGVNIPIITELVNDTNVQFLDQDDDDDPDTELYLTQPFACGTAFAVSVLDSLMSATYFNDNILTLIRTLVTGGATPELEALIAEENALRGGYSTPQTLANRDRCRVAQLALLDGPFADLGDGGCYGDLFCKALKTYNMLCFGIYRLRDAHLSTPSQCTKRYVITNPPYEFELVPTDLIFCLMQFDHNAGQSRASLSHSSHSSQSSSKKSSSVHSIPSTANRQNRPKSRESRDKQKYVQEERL
Chain of UniProt Q02156 (whole entry, looked up): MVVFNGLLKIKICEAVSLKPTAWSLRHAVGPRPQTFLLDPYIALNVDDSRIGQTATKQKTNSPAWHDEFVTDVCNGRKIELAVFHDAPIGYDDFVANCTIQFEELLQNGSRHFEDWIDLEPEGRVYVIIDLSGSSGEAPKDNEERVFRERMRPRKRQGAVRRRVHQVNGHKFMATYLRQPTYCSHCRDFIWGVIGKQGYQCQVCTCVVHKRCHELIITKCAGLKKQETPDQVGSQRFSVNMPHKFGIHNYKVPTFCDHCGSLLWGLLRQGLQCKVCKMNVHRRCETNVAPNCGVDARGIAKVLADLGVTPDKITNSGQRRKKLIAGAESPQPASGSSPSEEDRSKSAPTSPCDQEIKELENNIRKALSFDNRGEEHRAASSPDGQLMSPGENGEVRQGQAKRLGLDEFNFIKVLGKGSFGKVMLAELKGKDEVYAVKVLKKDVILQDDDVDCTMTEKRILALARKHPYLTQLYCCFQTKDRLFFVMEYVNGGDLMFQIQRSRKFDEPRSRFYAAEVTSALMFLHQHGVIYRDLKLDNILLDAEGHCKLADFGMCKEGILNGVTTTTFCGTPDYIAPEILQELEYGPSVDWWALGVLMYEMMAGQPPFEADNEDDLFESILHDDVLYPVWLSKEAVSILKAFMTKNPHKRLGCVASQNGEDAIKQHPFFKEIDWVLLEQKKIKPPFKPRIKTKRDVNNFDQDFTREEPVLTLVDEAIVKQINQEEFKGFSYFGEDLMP
Chain of UniProt Q9NZ08 (whole entry, unmodified, looked up): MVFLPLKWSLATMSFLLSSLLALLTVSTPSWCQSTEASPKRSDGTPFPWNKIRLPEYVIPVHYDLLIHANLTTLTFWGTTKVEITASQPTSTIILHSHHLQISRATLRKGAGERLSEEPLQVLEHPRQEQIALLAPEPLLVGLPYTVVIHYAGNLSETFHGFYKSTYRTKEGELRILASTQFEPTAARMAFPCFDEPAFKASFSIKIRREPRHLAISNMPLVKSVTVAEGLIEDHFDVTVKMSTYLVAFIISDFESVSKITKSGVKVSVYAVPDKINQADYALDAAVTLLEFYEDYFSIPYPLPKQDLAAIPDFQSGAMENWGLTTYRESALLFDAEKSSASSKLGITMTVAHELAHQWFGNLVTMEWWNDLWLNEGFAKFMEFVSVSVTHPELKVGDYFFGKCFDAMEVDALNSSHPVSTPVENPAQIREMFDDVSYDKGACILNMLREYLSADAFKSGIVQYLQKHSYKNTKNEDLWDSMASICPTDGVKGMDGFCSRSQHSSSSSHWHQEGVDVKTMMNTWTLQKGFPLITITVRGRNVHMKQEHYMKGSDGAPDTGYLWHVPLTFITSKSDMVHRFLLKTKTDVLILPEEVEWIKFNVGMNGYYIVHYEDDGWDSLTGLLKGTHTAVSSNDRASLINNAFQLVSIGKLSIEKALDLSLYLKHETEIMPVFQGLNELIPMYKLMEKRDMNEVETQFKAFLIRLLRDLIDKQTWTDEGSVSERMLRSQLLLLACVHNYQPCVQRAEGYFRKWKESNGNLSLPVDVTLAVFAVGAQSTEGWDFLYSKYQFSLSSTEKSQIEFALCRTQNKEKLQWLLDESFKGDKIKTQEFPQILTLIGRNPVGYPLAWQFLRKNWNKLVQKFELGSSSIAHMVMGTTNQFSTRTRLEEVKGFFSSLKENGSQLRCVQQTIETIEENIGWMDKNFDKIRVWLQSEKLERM
Chain of UniProt Q9Y2U9 (whole entry, looked up): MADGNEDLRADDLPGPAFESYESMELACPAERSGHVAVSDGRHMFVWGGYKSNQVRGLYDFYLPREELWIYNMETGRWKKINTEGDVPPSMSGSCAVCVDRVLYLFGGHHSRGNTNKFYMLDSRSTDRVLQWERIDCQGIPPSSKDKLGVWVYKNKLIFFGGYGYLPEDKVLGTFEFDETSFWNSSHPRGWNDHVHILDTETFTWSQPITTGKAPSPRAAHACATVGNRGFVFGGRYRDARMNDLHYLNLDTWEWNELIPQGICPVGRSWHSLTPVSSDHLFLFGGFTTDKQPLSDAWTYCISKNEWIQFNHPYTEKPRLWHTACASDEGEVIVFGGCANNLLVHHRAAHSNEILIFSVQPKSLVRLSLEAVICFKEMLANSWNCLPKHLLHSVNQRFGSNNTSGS

Molecule | target | assay | test system | conditions | scale | measurement | value
CC(C)C[C@H](NP(=O)(O)O[C@@H]1O[C@@H](C)[C@H](O)[C@@H](O)[C@H]1O)C(=O)N[C@@H](Cc1c[nH]c2ccccc12)C(=O)O | peptidases | inhibitor | human blood | 7 to 607 µM, 30 min preincubation, 37 °C, added: THF | – | THF Lys-Phe bond cleavage | inhibited
N[C@@H](Cc1cnc[nH]1)C(=O)O | Histidine--tRNA ligase, cytoplasmic (HARS1, Homo sapiens, UniProt P12081, R362H) | thermal stability, DSF | – | – | – | ΔTm | 6.3 °C
NC[C@@H]1O[C@H](O[C@H]2[C@@H](O)[C@H](O[C@@H]3[C@@H](O)[C@H](N)C[C@H](N)[C@H]3O[C@H]3O[C@H](CN)[C@@H](O)[C@H](O)[C@H]3N)O[C@@H]2CO)[C@H](N)[C@@H](O)[C@@H]1O | T1, dsDNA | competitor, fluorescence intercalator displacement | – | pH 6.8, 20 °C, KCl 100 mM, added: thiazole orange | – | binding | binds weakly
IKPAKRMKFKTVCYLLVQLMHCRKMFKA | Calm1 D21A/D57A | Ca2+ dissociation, stopped-flow quin-2 fluorescence | peptide | 2 µM, pH 7.4, 22 °C, added: Ca2+-calmodulin complex | – | koff2 | 0.84 s⁻¹ and 0.8 s⁻¹
CCOc1ccccc1S(=O)(=O)N1CC(c2nc(-c3cccc(F)c3)no2)C1 | KCNT1 | Tl+ flux, inhibitor | HEK293 expressing KCNT1 | 30 µM | – | activity class | inactive
O=S(=O)(Sc1cccc(F)c1)c1cccc(F)c1 | tubulin | colchicine binding | – | 5 µM, 10 min, 37 °C, added: 5.0 µM [3H]colchicine | – | inhibition | 8.9 ± 0.9%
CCOc1ccccc1S(=O)(=O)N1CC(c2nnc(-c3ccc(F)cc3)o2)C1 | KCNT1 | Tl+ flux, activator | HEK293 expressing KCNT1 | 30 µM | baseline: loxapine maximum response | efficacy | < 10%
CC1CNCCN1S(=O)(=O)c1cccc2cnccc12.Cl.Cl (stereo not drawn) | integrin alphaM beta2 (human) | ligand binding, inhibitor, flow cytometry | human neutrophils | concentration not given, 1 h, 37 °C, integrin clustering inhibitor, added: Alexa 488-labelled plasminogen | baseline: no inhibitor, lower means less binding | bound plasminogen fluorescence | 323 ± 45 MFI
O=C(O)CNC(=O)C(CS)Cc1ccccc1 (stereo not drawn) | Neprilysin (Rattus norvegicus, UniProt P07861) | inhibitor, MALDI-TOF MS | isolated rat glomeruli | 10 µM, 60 min, 37 °C, added: ANG-I 1 µM | – | ANG-(2-10) formation | 46.6 ± 10.5 pg/glomerulus
CCCCCCC(C=O)=Cc1ccccc1 | cysteine peptide Ac-RFAACAA-COOH | peptide depletion, DPRA RapidFire-MS/MS | – | 24 h, pH 7.5, room temperature, added: 5.0 µM cysteine peptide | – | IC50 | inactive
COc1cc(/C=C/C(=O)CC(=O)/C=C/c2ccc(O)c(OC)c2)ccc1O | Protein kinase C epsilon type, C1B domain (PRKCE, Homo sapiens, UniProt Q02156) | – | buffer | 5×1 µM, 1 h, 25 °C, protein excess | – | emission maximum | 562 nm
Brc1cccc(SSc2cccc(Br)c2)c1 | tubulin | colchicine binding, [3H]colchicine binding | – | 50 µM, 10 min, 37 °C, added: [3H]colchicine 5.0 µM | – | inhibition | 17 ± 4%
CSS(C)(=O)=O | Phosphoribosyl-AMP cyclohydrolase (hisI, Methanococcus vannielii, UniProt Q50837) | enzyme activity, covalent inactivator | – | 78 µM, pH 7.5, 4 °C | – | inactivation rate | 0.26 min⁻¹
CCOc1ccccc1S(=O)(=O)N1CC(c2nc(-c3ncccn3)no2)C1 | KCNT1 | Tl+ flux, inhibitor | HEK293 expressing KCNT1 | 30 µM | – | activity class | inactive
COc1cccc(-n2c(-c3ccc(Br)cc3)cs/c2=N/N=C(/C)c2ccc3c(c2)NC(=O)CO3)c1 | Aldo-keto reductase family 1 member A1 (Bos taurus, UniProt Q3ZCJ2) | enzyme activity, inhibitor, absorbance | – | 1 mM | – | inhibition | 31.9%
CC(C)C[C@H](NC(=O)[C@@H](NC(=O)[C@@H](N)[C@@H](C)O)C(C)C)C(=O)N1CCC[C@H]1C(=O)N1CCC[C@H]1C(=O)N1CCC[C@H]1C(=O)N1CCC[C@H]1C(=O)N[C@@H](Cc1ccc(O)cc1)C(=O)N[C@@H](CCCNC(=N)N)C(=O)N[C@@H](Cc1c[nH]cn1)C(=O)N[C@@H](C)C(=O)N[C@@H](CC(N)=O)C(=O)O | YAP1 WW2 domain | binding, ITC | – | pH 7.0, 25 °C, WW2 domain | – | TΔS | -3.49 ± 0.01 kcal/mol
CC[C@H](C)[C@H](NC(=O)[C@H](CC(N)=O)NC(=O)[C@H](Cc1c[nH]cn1)NC(=O)[C@@H](NC(=O)[C@H](CCC(N)=O)NC(=O)[C@H](CCCNC(=N)N)NC(=O)[C@@H](NC(=O)[C@@H](N)CCC(=O)O)[C@@H](C)CC)[C@@H](C)O)C(=O)N[C@@H](Cc1ccccc1)C(=O)N[C@@H](Cc1ccccc1)C(=O)N[C@@H](CC(N)=O)C(=O)N[C@@H](Cc1ccccc1)C(=O)N[C@@H](Cc1ccccc1)C(=O)N[C@@H](CCCCN)C(=O)N[C@@H](CCCNC(=N)N)C(=O)N[C@@H](CCCNC(=N)N)C(=O)O | histidine kinase ComD (Streptococcus pneumoniae serotype 4, UniProt A0A0H2US84) | reporter gene, agonist | Streptococcus pneumoniae, TIGR4 pcomX::lacZ | 10 µM | baseline: native CSP2 | ComD2 activation | > 75%

Molecule | target | assay | test system | conditions | scale | measurement | value
CC1(Cc2ccccc2)NC(=O)C(C(=O)Nc2ccc(C3CCCCC3)cc2)=C1O (stereo not drawn) | Isoprenyl transferase (Streptococcus pneumoniae serotype 4, UniProt Q97SR4) | binding, competitor | – | added: 2 µM fluorescent FPP probe | – | fluorescent probe displacement | no effect
CN(C)C(=O)C(CCN1CCC(O)(c2ccc(Cl)cc2)CC1)(c1ccccc1)c1ccccc1 | Calcium-activated potassium channel subunit alpha-1, with LRRC26 γ1 subunit (KCNMA1, Homo sapiens, UniProt Q12791) | ion current, whole-cell patch clamp | HEK-293T overexpressing | 10 µM, second application | – | time constant | 32 s
CCN(CC)c1ccc2c(C)c(CCN3C(=O)NC4(CCN(c5nccn6ccnc56)CC4)C3=O)c(=O)oc2c1 | human WIL-FL light chain dimer | proteolysis, stabilizer, proteinase K digestion | – | 10 µM, 2 h, 37 °C, 1% DMSO, added: proteinase K 50 nM | baseline: vehicle | fold protection | > 0.99
Oc1ccc(/C=C/c2cc3ccc4cccc5ccc(c2)c3c45)cc1O | Transthyretin, fibrils (TTR, Homo sapiens, UniProt P02766) | binding, fluorescence emission | – | 1 µM, pH 3.0, added: 5 µM fibrils (monomer) | baseline: free compound | fluorescence increase | 6.3 fold
NC[C@H]1O[C@H](O[C@H]2[C@H](O[C@@H]3O[C@H](CO)[C@@H](O)[C@H]3O)[C@@H](O)[C@H](N)C[C@@H]2N)[C@H](N)[C@@H](O)[C@@H]1O | T2, DNA triplex, hexaethylene glycol linkers after 12, 24 | ITC | – | pH 6.8, KCl 150 mM | – | binding | binds weakly
IINFEKL | Endoplasmic reticulum aminopeptidase 1 (ERAP1, Homo sapiens, UniProt Q9NZ08, F803R) | L-AMC hydrolysis, activator | peptide | 100 µM, 5 min, pH 8.0, 27 °C, mutant F803R, added: L-AMC varied from 0 µM | – | Vmax | 379 ± 4 nmol/min/µg
Nc1ccc(-c2nc([C@H]3CCc4cc(-c5cc(Cl)ccc5-n5cnnn5)cc(=O)n43)c(F)[nH]2)c(F)n1 | Coagulation factor XI (F11, Homo sapiens, UniProt P03951) | factor XI coagulant activity | human, blood | oral, 150 mg once daily, 14 days, fed | – | maximum inhibition | 85 ± 5.2%
OC[C@@H]1[C@@H](O)[C@H](O)[C@@H](O)[C@@H]2O[C@H]12 | Lysosomal acid glucosylceramidase (GBA1, Homo sapiens, UniProt P04062, R534H) | enzyme activity, inhibitor | – | pH 5.2 | – | kinact | 0.0117 s⁻¹
CN1CCCC2C(c3ccccc3)C(C3=NCCCC3)C(c3ccccc3)CC21 (stereo not drawn) | T3, miR-21 precursor (Homo sapiens) | DSF | – | 3 µM, NaCl 0.25 mM | – | melting temperature shift | -14 °C
CC(C)C[C@H](NC(=O)[C@@H](NC(=O)[C@@H](N)[C@@H](C)O)C(C)C)C(=O)N1CCC[C@H]1C(=O)N1CCC[C@H]1C(=O)N1CCC[C@H]1C(=O)N1CCC[C@H]1C(=O)N[C@@H](Cc1ccc(O)cc1)C(=O)N[C@@H](CCCNC(=N)N)C(=O)N[C@@H](Cc1c[nH]cn1)C(=O)N[C@@H](CCCNC(=N)N)C(=O)N[C@@H](CC(N)=O)C(=O)O | YAP1 WW2 domain | binding, ITC | – | pH 7.0, 25 °C, WW2 domain | – | ΔG | -5.81 ± 0.04 kcal/mol
CCOc1ccccc1C(C)N1CC(c2nc(-c3ccsc3)no2)C1 (stereo not drawn) | KCNT1 | Tl+ flux, activator | HEK293 expressing KCNT1 | 30 µM | baseline: loxapine maximum response | efficacy | < 10%
YSLAAVVLGLVQSLNRQRQKQLLNE | Calm1 D21A/D57A | Ca2+ dissociation, stopped-flow quin-2 fluorescence | peptide | 2 µM, pH 7.4, 22 °C, added: Ca2+-calmodulin complex | – | koff2 | 3.84 s⁻¹ and 3.8 s⁻¹
CC(C)C[C@H](NC(=O)[C@H](C)NC(=O)[C@@H](N)[C@@H](C)O)C(=O)N1CCC[C@H]1C(=O)N1CCC[C@H]1C(=O)N1CCC[C@H]1C(=O)N1CCC[C@H]1C(=O)N[C@@H](Cc1ccc(O)cc1)C(=O)N[C@@H](CCCNC(=N)N)C(=O)N[C@@H](Cc1c[nH]cn1)C(=O)N[C@@H](CCCNC(=N)N)C(=O)N[C@@H](CC(N)=O)C(=O)O | YAP1 WW2 domain | binding, ITC | – | pH 7.0, 25 °C, WW2 domain | – | ΔH | -10.3 ± 0.28 kcal/mol
COc1ccc(C(=O)NCCNc2nc3cc(C)cc(C)c3cc2C#N)nc1 | Cystic fibrosis transmembrane conductance regulator (CFTR, Homo sapiens, UniProt P13569, del508-508) | CFTR correction, corrector, iodide influx rate | FRT expressing YFP-H148Q/I152L | up to 25 µM, 16-20 h, 37 °C, added: forskolin 20 µM, genistein 50 µM | – | Vmax | 88 µM/s
CC[C@H](C)[C@H](NC(=O)[C@@H]1CCCN1C(=O)[C@@H]1CCCN1C(=O)[C@@H]1CCCN1C(=O)[C@@H](NC(=O)[C@H](CC(N)=O)NC(=O)[C@@H](N)Cc1ccccc1)[C@@H](C)CC)C(=O)N[C@@H](Cc1ccc(O)cc1)C(=O)N[C@H](C(=O)N[C@@H](CO)C(=O)N[C@@H](CCCNC(=N)N)C(=O)N[C@@H](C)C(=O)O)[C@@H](C)O | Transcriptional coactivator YAP1, WW1 domain (YAP1, Homo sapiens, UniProt P46937) | binding, ITC | – | pH 7.0, 25 °C, WW1 domain | – | ΔG | -5.4 ± 0.09 kcal/mol
EVIVFGG | Kelch domain-containing protein 2 (UniProt Q9Y2U9) | native mass spectrometry | peptide, 200 mM ammonium acetate | 20 µM Kelch domain-containing protein 2, pH 7 | baseline: total Kelch domain-containing protein 2 signal | fraction of protein bound | 1.5%

A few entries again:
Molecule | target | assay | test system | conditions | scale | measurement | value
CC(C)C[C@H](NP(=O)(O)O[C@@H]1O[C@@H](C)[C@H](O)[C@@H](O)[C@H]1O)C(=O)N[C@@H](Cc1c[nH]c2ccccc12)C(=O)O | peptidases | inhibitor | human blood | 7 to 607 µM, 30 min preincubation, 37 °C, added: THF | – | THF Lys-Phe bond cleavage | inhibited
N[C@@H](Cc1cnc[nH]1)C(=O)O | Histidine--tRNA ligase, cytoplasmic (HARS1, Homo sapiens, UniProt P12081, R362H) | thermal stability, DSF | – | – | – | ΔTm | 6.3 °C
NC[C@@H]1O[C@H](O[C@H]2[C@@H](O)[C@H](O[C@@H]3[C@@H](O)[C@H](N)C[C@H](N)[C@H]3O[C@H]3O[C@H](CN)[C@@H](O)[C@H](O)[C@H]3N)O[C@@H]2CO)[C@H](N)[C@@H](O)[C@@H]1O | T1, dsDNA | competitor, fluorescence intercalator displacement | – | pH 6.8, 20 °C, KCl 100 mM, added: thiazole orange | – | binding | binds weakly
